Measured values pooled from the literature.
Each line is one published result; not all experiments were run side by side. ± marks the error that the study gave.

CN(CCCN)[C@H](C(=O)O)[C@H](O[C@@H]1O[C@H](CN)[C@@H](O)[C@H]1O)[C@H]1O[C@@H](n2ccc(=O)[nH]c2=O)[C@H](O)[C@@H]1O has an MIC of greater than 25 µg/mL (Clostridioides difficile; microbial growth; ATCC43596).
[O-][N+]1=C(Cc2ccccc2)C2=NCCCN2c2ccccc21 gave an MIC of 32 µg/mL (Clostridioides difficile; microbial growth; ATCC43255).
For CN[C@@H]1[C@H](O)[C@H](NC)[C@H]2O[C@]3(O)[C@H](O[C@@H]2[C@H]1O)O[C@H](C)C[C@@]3(O)CNCc1ccccc1, the MIC was 13 µg/mL (Streptococcus pneumoniae; Daw27 drug resistant).
C=C(NC(=O)C(=C)NC(=O)c1csc(C2=NC3c4csc(n4)C4NC(=O)c5csc(n5)C(C(C)(O)C(C)O)NC(=O)C5CSC(=N5)C(=CC)NC(=O)C(C(C)O)NC(=O)c5csc(n5)C3(CC2)NC(=O)C(C)NC(=O)C(=C)NC(=O)C(Cc2ccc(O)cc2)NC(=O)C(C(C)CC)NC2C=Cc3c(C(C)O)cc(nc3C2O)C(=O)OC4C)n1)C(N)=O (stereo not shown) gave an MIC of 0.27 µg/mL (Bacillus sp.; broth microdilution; ATCC 27859; 18 h, 37 °C).
The MIC of CC(C)c1ccc(Cn2ccc([C@H](C)[C@](O)(Cn3cnnn3)c3ccc(F)cc3F)n2)cc1 is reported as 4 µg/mL (Candidozyma auris; microbial growth; 887; 24 h, drug-resistant strain, clinical isolate).
For CN[C@@H]1[C@H](O)[C@H](NC)[C@H]2O[C@]3(O)[C@H](O[C@@H]2[C@H]1O)O[C@H](C)C[C@@]3(O)CNCc1ccc(OC(F)(F)F)cc1, the MIC was 3 µg/mL (Streptococcus pneumoniae; R6 drug sensitive).
For CC[C@H](C)[C@H](NC(=O)[C@H](C)NC(=O)CNC(=O)[C@@H](N)CCSC)C(=O)N[C@@H](C)C(=O)N[C@@H](CCCCN)C(=O)N[C@@H](CC(C)C)C(=O)N[C@H](C(=O)N[C@@H](C)C(=O)N[C@@H](CCCCN)C(=O)N[C@@H](Cc1ccccc1)C(=O)NCC(=O)N[C@@H](Cc1c[nH]c2ccccc12)C(=O)N1CCC[C@H]1C(=O)N[C@@H](Cc1ccccc1)C(=O)N[C@H](C(=O)N[C@@H](CCCCN)C(=O)N[C@@H](CCCCN)C(=O)N[C@@H](Cc1ccccc1)C(=O)N[C@@H](Cc1ccc(O)cc1)C(=O)N[C@@H](CCCCN)C(=O)N[C@@H](CCC(N)=O)C(=O)N[C@H](C(=O)N[C@@H](CCSC)C(=O)N[C@@H](CCC(N)=O)C(=O)N[C@@H](CCCNC(=N)N)C(=O)N[C@H](C(=O)NCC(=O)N[C@@H](CCC(N)=O)C(=O)NCC(=O)N[C@@H](Cc1c[nH]c2ccccc12)C(=O)N[C@H](C(=O)N[C@H](C(=O)N[C@@H](CC(=O)O)C(=O)N[C@@H](CCC(N)=O)C(=O)N[C@H](C(=O)N[C@@H](CCC(=O)O)C(=O)N[C@@H](CCCCN)C(=O)N[C@@H](Cc1c[nH]c2ccccc12)C(=O)N[C@@H](CC(C)C)C(=O)N[C@@H](CCCCN)C(=O)N[C@@H](CCCNC(=N)N)C(=O)N[C@@H](Cc1c[nH]cn1)C(=O)O)[C@@H](C)CC)[C@@H](C)CC)[C@@H](C)O)[C@@H](C)CC)[C@@H](C)CC)[C@@H](C)CC)C(C)C, the MIC was 10.5 ± 0.1 µM (Bacillus subtilis subsp. subtilis; ATCC 23857; 10 h).
C[C@@H](c1ccn(Cc2ccc(Cl)cc2Cl)n1)[C@](O)(Cn1cnnn1)c1ccc(F)cc1F has an MIC of 16 µg/mL (Candidozyma auris; growth; 789 drug-resistant isolate; 24 h, 30 °C, ≥50% inhibition).
[O-][N+]1=C(c2ccsc2)C2=NCCCN2c2ccccc21 gave an MIC of 4 µg/mL (Clostridioides difficile; microbial growth; ATCC43255).
CC[C@H](C)[C@H](NC(=O)[C@@H](Cc1ccccc1)NC)C(=O)N[C@@H](CO)C(=O)N[C@H](CCCNC(=N)N)C(=O)N[C@@H](C(=O)N[C@H](C(=O)N[C@@H](CO)C(=O)N[C@H]1C(=O)N[C@@H](C)C(=O)N[C@@H](CC(C)C)C(=O)N[C@@H]([C@@H](C)CC)C(=O)O[C@H]1C)[C@@H](C)CC)[C@@H](C)CC gave an MIC of 0.0078 to 2 µg/mL (Gram-positive bacteria; 0.002% polysorbate 80; range over five species).
CN(Cc1cc(C2CC2)on1)C(=O)c1cccc(-c2ccc3c(c2)CCO3)c1 has an MIC of 4 µg/mL (Cryptococcus neoformans; broth microdilution; acl1∆ mutant, RPMI-MOPS).
With CC[C@H](C)[C@H](NC(=O)[C@H](CCCN)NC(=O)[C@H](CC(N)=O)NC(=O)[C@H](CC(C)C)NC(=O)[C@H](Cc1ccccc1)NC(=O)[C@H](CCCN)NC(=O)[C@H](CCCCNC(=N)N)NC(=O)[C@H](CC(C)C)NC(=O)[C@H](CC(C)C)NC(=O)[C@H](CCCN)NC(=O)[C@H](CCCCNC(=N)N)NC(=O)[C@H](CC(C)C)NC(=O)CNC(C)=O)C(=O)N[C@@H](CCCN)C(=O)N[C@@H](CCCCNC(=N)N)C(N)=O the MIC was 12.5 µM (Enterobacter aerogenes; broth microdilution; multidrug-resistant).
[O-][N+]1=C(c2ccccc2)C2=NCCN2c2ccccc21 gave an MIC of 1 µg/mL (Clostridioides difficile; microbial growth; ATCC43255).
For N#Cc1ccc(-c2c[nH]c(CNC(=O)Nc3ncc(Sc4ccccn4)s3)n2)cc1, the MIC was greater than 128 µM (Bifidobacterium breve; broth microdilution; ATCC 11863; without verapamil).
The MIC of CC1=C[C@@]2(C)C(=C(C)[C@H]3[C@@H]4C[C@H](C)C[C@H](C)[C@H]4[C@H]4Oc5ccc(cc5)C[C@]5(O)NC(=O)[C@]6(O[C@H]65)C(=O)[C@@H]2[C@@H]43)[C@H]1C is reported as 3.1 to 6.3 µM (Staphylococcus aureus, Enterococcus faecalis, Enterococcus faecium; broth microdilution; drug-susceptible and drug-resistant; range over Gram-positive panel).
C[N+]1=C2C(c3ccc([N+](=O)[O-])cc3)=[N+]([O-])c3ccccc3N2CCC1 has an MIC of 2 µg/mL (Prevotella intermedia/nigrescens; ATCC 25611).
With CC[C@H](C)[C@H](NC(=O)[C@H](C)NC(=O)[C@@H](NC(=O)[C@H](CC(=O)O)NC(=O)[C@H](CCCCN)NC(=O)[C@H](CO)NC(=O)[C@@H](NC(=O)[C@H](CC(N)=O)NC(=O)[C@H](C)NC(=O)[C@@H](NC(=O)[C@H](CCC(=O)O)NC(=O)[C@H](CCCCN)NC(=O)[C@@H](NC(=O)[C@@H](NC(=O)[C@H](Cc1c[nH]cn1)NC(=O)[C@H](CCCCN)NC(=O)[C@@H](NC(=O)[C@H](CCCCN)NC(=O)[C@H](CCCCN)NC(=O)[C@@H](NC(=O)[C@H](CC(C)C)NC(=O)[C@H](CCCCN)NC(=O)[C@H](CC(N)=O)NC(=O)[C@H](Cc1ccccc1)NC(=O)[C@H](CCCNC(=N)N)NC(=O)[C@H](CCCCN)NC(=O)[C@H](CCCNC(=N)N)NC(=O)[C@H](Cc1ccccc1)NC(=O)CN)C(C)C)C(C)C)[C@@H](C)O)[C@@H](C)CC)[C@@H](C)O)C(C)C)C(C)C)C(=O)N[C@H](C(=O)N[C@@H](C)C(=O)NCC(=O)N[C@@H](CO)C(=O)NCC(=O)N[C@H](C(=O)N[C@@H](C)C(=O)N[C@H](C(=O)NCC(=O)N[C@@H](C)C(=O)N[C@@H](C)C(=O)N[C@@H](CCSC)C(N)=O)C(C)C)C(C)C)C(C)C the MIC was no less than 64 µg/mL (S. maltophilia, M. morganii, S. fonticola; clinical isolates).
For CC(C)C[C@@H]1NC(=O)[C@H](C)NC(=O)[C@H](NC(=O)[C@H](CO)NC(=O)[C@@H](CCCCN)NC(=O)[C@@H](CC(C)C)NC(=O)[C@@H](N)Cc2ccccc2)[C@H](C)OC(=O)[C@H](CC(C)C)NC1=O, the MIC was 2 µg/mL (Bacillus subtilis Staphylococcus epidermidis; ATCC 14990; tested as TFA salt).
With CC(C)C[C@H](NC(=O)CNC(=O)[C@H](C)NC(=O)[C@H](CCCNC(=N)N)NC(=O)[C@H](Cc1c[nH]cn1)NC(=O)CNC(=O)CN)C(=O)N[C@@H](CCC(N)=O)C(=O)N[C@@H](Cc1ccccc1)C(=O)N1CCC[C@H]1C(=O)N[C@H](C(=O)NCC(=O)N[C@@H](CCCNC(=N)N)C(=O)N[C@H](C(=O)N[C@@H](Cc1c[nH]cn1)C(=O)N[C@@H](CCCNC(=N)N)C(=O)N[C@@H](CC(C)C)C(=O)N[C@@H](CC(C)C)C(=O)N[C@@H](CCCNC(=N)N)C(=O)N[C@@H](CCCCN)C(N)=O)C(C)C)C(C)C the MIC was greater than 32 µM (Enterobacter aerogenes; ATCC 13048; 18 to 20 h).

A few entries again:
CC[C@H](C)[C@H](NC(=O)[C@@H](Cc1ccccc1)NC)C(=O)N[C@@H](CO)C(=O)N[C@H](CCCNC(=N)N)C(=O)N[C@@H](C(=O)N[C@H](C(=O)N[C@@H](CO)C(=O)N[C@H]1C(=O)N[C@@H](C)C(=O)N[C@@H](CC(C)C)C(=O)N[C@@H]([C@@H](C)CC)C(=O)O[C@H]1C)[C@@H](C)CC)[C@@H](C)CC gave an MIC of 0.0078 to 2 µg/mL (Gram-positive bacteria; 0.002% polysorbate 80; range over five species).
